Experimental data gathered from unrelated publications.
Lines come from different studies, so protocols differ. ± marks the error that the study gave. * marks the point of attachment.
Glycine receptor (alpha-1/beta): Glycine receptor (alpha-1/beta) (Homo sapiens, UniProt P23415+P48167)
UniProt P48167, sequence (whole entry, looked up): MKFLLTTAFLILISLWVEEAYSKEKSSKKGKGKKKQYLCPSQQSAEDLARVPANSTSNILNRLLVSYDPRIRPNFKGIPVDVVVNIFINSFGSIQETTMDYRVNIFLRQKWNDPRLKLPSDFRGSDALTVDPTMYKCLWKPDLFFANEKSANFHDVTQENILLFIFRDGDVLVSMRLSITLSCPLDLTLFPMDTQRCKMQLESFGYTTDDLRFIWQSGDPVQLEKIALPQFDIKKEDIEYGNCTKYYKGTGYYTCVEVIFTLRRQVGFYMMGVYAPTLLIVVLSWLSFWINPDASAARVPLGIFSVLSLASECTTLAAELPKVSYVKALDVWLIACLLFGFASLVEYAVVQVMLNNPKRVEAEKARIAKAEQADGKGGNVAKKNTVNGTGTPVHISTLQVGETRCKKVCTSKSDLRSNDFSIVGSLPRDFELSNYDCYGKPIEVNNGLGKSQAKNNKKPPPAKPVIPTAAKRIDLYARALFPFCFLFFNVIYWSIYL
UniProt P23415, sequence (whole entry, looked up): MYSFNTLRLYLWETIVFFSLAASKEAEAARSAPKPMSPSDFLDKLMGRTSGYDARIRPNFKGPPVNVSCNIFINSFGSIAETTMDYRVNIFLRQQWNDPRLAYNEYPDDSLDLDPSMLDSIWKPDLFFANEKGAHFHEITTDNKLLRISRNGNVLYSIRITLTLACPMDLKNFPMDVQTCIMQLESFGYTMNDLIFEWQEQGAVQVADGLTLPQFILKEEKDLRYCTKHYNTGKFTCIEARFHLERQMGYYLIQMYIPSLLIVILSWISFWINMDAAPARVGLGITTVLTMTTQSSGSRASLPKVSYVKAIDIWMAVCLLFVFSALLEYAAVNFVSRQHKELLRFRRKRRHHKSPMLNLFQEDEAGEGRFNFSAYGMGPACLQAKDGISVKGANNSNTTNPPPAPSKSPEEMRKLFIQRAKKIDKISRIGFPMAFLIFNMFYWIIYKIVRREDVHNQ
UniProt Q8X1D8, sequence (whole entry, looked up): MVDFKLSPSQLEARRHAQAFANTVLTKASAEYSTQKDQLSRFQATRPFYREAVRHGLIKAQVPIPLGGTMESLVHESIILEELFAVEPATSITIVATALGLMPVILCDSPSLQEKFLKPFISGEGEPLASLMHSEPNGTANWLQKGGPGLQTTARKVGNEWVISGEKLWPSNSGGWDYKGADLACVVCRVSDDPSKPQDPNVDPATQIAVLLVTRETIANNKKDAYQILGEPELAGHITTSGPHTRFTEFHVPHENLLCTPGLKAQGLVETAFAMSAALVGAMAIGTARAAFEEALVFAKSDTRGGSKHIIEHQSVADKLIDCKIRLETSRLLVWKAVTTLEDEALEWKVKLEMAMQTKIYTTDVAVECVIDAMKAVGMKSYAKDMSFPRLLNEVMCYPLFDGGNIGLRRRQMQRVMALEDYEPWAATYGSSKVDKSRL
UniProt Q04544, sequence (whole entry, looked up): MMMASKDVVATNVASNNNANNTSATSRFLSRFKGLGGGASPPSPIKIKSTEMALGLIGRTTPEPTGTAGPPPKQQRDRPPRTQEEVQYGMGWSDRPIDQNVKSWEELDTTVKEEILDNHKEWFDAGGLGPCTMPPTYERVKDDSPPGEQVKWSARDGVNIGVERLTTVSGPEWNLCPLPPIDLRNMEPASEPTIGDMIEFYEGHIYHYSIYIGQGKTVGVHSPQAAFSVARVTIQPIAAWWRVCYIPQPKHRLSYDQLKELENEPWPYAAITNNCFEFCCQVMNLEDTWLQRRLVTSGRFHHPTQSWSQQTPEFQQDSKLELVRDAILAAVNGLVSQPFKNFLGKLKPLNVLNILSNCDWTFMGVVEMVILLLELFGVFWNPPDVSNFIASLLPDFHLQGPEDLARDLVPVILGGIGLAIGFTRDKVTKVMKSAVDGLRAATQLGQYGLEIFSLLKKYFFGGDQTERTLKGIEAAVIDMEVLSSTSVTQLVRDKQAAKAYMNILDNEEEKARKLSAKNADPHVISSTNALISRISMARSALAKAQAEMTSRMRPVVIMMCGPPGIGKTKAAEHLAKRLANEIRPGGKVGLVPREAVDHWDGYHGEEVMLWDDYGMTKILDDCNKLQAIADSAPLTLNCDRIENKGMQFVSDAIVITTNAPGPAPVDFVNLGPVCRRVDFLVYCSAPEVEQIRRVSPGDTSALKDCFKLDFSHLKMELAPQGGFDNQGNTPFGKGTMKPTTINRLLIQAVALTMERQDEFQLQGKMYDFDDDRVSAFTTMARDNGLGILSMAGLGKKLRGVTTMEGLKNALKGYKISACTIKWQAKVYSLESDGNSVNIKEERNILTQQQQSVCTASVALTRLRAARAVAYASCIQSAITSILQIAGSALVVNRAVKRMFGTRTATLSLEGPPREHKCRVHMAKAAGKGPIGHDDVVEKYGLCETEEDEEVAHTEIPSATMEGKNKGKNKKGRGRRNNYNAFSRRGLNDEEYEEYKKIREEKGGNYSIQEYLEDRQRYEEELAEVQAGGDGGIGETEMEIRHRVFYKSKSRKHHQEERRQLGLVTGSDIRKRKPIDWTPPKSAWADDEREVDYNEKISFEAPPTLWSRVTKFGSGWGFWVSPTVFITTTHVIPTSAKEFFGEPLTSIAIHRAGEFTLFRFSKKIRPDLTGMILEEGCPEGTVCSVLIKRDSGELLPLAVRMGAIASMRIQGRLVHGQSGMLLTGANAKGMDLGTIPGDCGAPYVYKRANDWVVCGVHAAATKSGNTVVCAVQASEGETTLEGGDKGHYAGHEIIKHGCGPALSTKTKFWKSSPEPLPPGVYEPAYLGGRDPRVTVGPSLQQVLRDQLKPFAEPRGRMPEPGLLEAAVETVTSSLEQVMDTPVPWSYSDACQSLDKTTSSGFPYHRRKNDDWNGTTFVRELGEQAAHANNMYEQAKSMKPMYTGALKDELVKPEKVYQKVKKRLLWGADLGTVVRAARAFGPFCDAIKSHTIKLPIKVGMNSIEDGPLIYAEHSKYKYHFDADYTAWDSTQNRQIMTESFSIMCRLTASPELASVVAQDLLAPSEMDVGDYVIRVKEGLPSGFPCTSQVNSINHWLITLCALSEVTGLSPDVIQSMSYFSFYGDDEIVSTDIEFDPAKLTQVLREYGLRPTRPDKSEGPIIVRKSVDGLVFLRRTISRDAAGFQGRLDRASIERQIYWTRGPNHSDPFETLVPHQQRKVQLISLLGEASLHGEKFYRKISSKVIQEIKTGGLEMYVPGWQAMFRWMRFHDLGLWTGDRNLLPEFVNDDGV
UniProt P03182, sequence (whole entry, looked up): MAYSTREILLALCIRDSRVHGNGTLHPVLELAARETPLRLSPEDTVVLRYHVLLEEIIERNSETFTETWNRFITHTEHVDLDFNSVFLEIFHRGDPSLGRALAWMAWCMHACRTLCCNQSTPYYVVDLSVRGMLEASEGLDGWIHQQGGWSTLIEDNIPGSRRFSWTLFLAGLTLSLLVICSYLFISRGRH

`RPIIWIGQEISRVGDRENAYYAR` gave a Kd of 2.2 ± 1.3 nM (Apoptosis regulator BHRF1 (Epstein-Barr virus, UniProt P03182); binding, fluorescence anisotropy; peptide).
For `enzyme (Agrobacterium tumefaciens, UniProt A0A2I4PGZ0)`, the Km was 470 µM (O=C(O)c1ccccc1O[C@@H]1O[C@H](CO)[C@@H](O)[C@H](O)[C@H]1O; steady-state kinetics; pH 7, 37 °C).
`fin fragment (Bacillus subtilis) (sequence not shown)`: binding “binds” (rpoC fragment (Bacillus subtilis); NMR titration).
With `MNPTYTM` the potentiation was under 20% (Glycine receptor (alpha-1/beta); ion current, positive modulator, two-electrode voltage clamp; peptide, Xenopus oocytes; 30 µM, -70 mV holding, together with: glycine EC5-10).
For `nitroalkane oxidase (Fusarium oxysporum, UniProt Q8X1D8)`, the kcat/Km was 150000 ± 46000 M⁻¹ s⁻¹ (CCCCCCCC[N+](=O)[O-]; steady-state kinetics; pH 8, 30 °C, together with: O2).
For `STFTKSP`, the potentiation was under 20% (Glycine receptor (alpha-1/beta); ion current, positive modulator, two-electrode voltage clamp; peptide, Xenopus oocytes; 30 µM, -70 mV holding, together with: glycine EC5-10).
`Ac-DEFQLQ-pNA (N-acetyl, C-p-nitroanilide; pNA = O=[N+]([O-])c1ccc(N*)cc1)` has a Km of 800 µM (ORF1, 3C-like protease (Southampton virus, UniProt Q04544); substrate, pNA substrate cleavage; pH 8.5).

A few entries again:
For `STFTKSP`, the potentiation was under 20% (Glycine receptor (alpha-1/beta); ion current, positive modulator, two-electrode voltage clamp; peptide, Xenopus oocytes; 30 µM, -70 mV holding, together with: glycine EC5-10).
